Published values from different studies.
Parts stem from different laboratories: compare values within a part only. Substitutions count along the parent as printed.

Sample 1
Target: Centromere-binding protein 1, full length, His-tagged (CBF1, Saccharomyces cerevisiae, UniProt P17106, residues 1-351)
UniProt P17106, sequence (whole entry, looked up): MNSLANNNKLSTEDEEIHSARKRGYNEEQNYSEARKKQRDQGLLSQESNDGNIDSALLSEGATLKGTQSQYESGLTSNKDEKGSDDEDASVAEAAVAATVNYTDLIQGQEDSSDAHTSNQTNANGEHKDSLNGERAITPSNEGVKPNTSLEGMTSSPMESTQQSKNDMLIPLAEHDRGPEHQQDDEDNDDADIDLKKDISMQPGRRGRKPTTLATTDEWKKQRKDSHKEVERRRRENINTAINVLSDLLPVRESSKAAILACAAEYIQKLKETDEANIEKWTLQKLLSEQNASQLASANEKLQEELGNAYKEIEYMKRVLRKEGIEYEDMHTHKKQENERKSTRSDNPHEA
Method: competition protein-binding microarray
Molecule type: double-stranded DNA, one strand shown
Medium: in vitro
Concentration: 2 µM
Setting: whole 60-bp probe, lowest competitor level
Together with: Pho4 competitor, 0.05 µM
Direction: higher = stronger binding
Shared flanks, not repeated: … GTCTTGATTCGCTTGACGCTGCTG
Strand | fluorescence intensity
CATACCCAACCTTGGCGAGTGGGTGAAGATATTTGT | 67.6 a.u.
GACGACAACAACTGTCATGTGGAAGATAGCCAAAAT | 176 a.u.
ATCTAATTTTGCGACCAAGTAGTTCTTAAACAAGTC | 70.3 a.u.
ATTTTCCTGATCCCAAATGTGACGCCCAACATGGCA | 71.7 a.u.
CCTTCGACCTTCCATCACGTGCAAATAGCTTAATAT | 4630 a.u.
AAGAGTGGCTACAAACATGTGAGTTGACCCAAGAAT | 114 a.u.
ATTGTTGATGCTCTTGGCATGACAGAGGCGACGCCG | 52 a.u.
CATACCCAACCTTGCAGGGTGGGTGAAGATATTTGT | 58.8 a.u.
TTGAAATGGCCAATCACCGTGCCAGGCTTGCAAGTC | 81.4 a.u.
TGAATGCACCTATTGCACGCTGCGAAGCTAACGTAG | 74.7 a.u.
CTTCTGTAAATTTGAGCAGTGGGTGGACGCGCCCCG | 70.3 a.u.
TGCGCAACAACTTGACGCGTGGGTGTATGTCTAGAA | 79.2 a.u.
ATGAAAAAGATTCACCACGTTTCTTTTGTTTCGATA | 125 a.u.
GAAGGAGCGGGGCGTCATGCTAACCAGGAATGGAAG | 64.2 a.u.
AGCCCCTATAGTAGCTTCGTGATGGGGTAGAACTTC | 55.7 a.u.
TTGGCACTTCGCACAGGCGTGACTCGTTTCTGTGAA | 235 a.u.
CCTTTAAAGGCCCACCACGTGGCTGCGCGGCCAGCC | 737 a.u.
AAAAGAGAATTTCCTGGCGTGCAAATCTCTGCAGAT | 68.7 a.u.
ACAATTTCAACCATCCTCGTGTCCTTGTTGTTATCT | 115 a.u.
TCCTCTACCCGACGCTTCGTGGGTATGAGAAGTAGT | 62.9 a.u.
CTAACGAAGGTTTGGTTAGTGGGTGACAAGCCAAGT | 80.3 a.u.
TATACGAATGTTACCCACGATGGCCGGAGTAGCTGT | 53.8 a.u.
GCTCTAGTAATTGTCTACGTGCCGAATCGTTTCTCT | 139 a.u.
CATACCCAACCTTGTCACATTACTTAAGATATTTGT | 128 a.u.
ACCCACATCACCCCATACATGACAATCTTCTTGCAA | 68.3 a.u.

Sample 2
Target: Histone acetyltransferase KAT6A, both winged helices, GST fusion (KAT6A, Homo sapiens, UniProt Q92794, residues 1-181)
Method: protein binding microarray
Molecule type: double-stranded DNA, one strand shown
Medium: in vitro
Concentration: not given
Setting: 8-mer, flanks averaged, mean of 2 arrays, mostly near background
Relative to: not given
Direction: higher = stronger binding
Residues (chain): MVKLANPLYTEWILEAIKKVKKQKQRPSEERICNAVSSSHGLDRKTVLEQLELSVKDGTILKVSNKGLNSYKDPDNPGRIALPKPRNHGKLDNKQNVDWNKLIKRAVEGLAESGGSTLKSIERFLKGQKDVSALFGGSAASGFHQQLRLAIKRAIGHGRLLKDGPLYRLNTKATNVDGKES
Strand | E-score
AGATCAGG | -0.153
AGCGAAGA | 0.00492
ACTCGGGA | 0.0654
TCAGCTAA | -0.185
GCCCTAAC | -0.00762
CGCAATCA | 0.221
GAAGTGAC | 0.075
ATTCGTCC | 0.0677
ATTCGAAC | -0.0972
AAGTCAAA | -0.113
CTGGCGCA | 0.0929
ACTCGGTA | 0.00535
CTTATCCA | -0.0534
GATCGTAC | 0.0123
AATCGTGT | 0.0997
CTCCAACA | -0.24
ACGGATAT | 0.214
CTCACTTC | -0.0217
GACTGCGC | 0.264
AGTTCGCC | 0.00424
ACGTGAAA | 0.0156
CCTCTATC | -0.279
CCAAACCA | -0.117

Sample 3
Target: ABI1, truncated, D143A, DHFR fusion (Arabidopsis thaliana)
Method: DHFR PCA, deep sequencing
Medium: yeast
Setting: methotrexate growth selection, single substitutions
Together with: (+)-ABA 0 µM
Relative to: wild-type fitted maximum
Direction: higher = stronger binding
Starting sequence: PYL1, truncated, DHFR fusion (Arabidopsis thaliana); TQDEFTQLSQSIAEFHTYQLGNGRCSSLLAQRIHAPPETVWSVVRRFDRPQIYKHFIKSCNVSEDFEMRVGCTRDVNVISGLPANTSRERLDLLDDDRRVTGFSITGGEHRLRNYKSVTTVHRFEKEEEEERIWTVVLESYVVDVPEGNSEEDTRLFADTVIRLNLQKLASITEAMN
Substitution | relative binding score [%]
S26H | 10.2
D159C | -5.11
I52K | 20.3
T73R | 1.54
G23E | 1.52
Q51P | -5.35
T1L | 32.1
T106M | 40.9
N85V | 60
Q2E | 27.4
I33Q | 4.74
H55L | 15.5
V136N | -2.22
G148Y | -16.3

Sample 4
Target: RING finger protein unkempt homolog, zinc fingers 1-6, GST-SBP tag (UNK, Homo sapiens, UniProt Q9C0B0, residues 30-357)
Method: RNA Bind-n-Seq
Molecule type: RNA
Medium: in vitro
Concentration: not given
Setting: RNA with constant flanks, human and mouse sites, ends assumed
Relative to: input RNA pool
Direction: higher = stronger binding
Shared flanks, not repeated: GGGAGUUCUACAGUCCGACGAUC … CAACAGAGGAUUGAGCAUCA
Residues (chain): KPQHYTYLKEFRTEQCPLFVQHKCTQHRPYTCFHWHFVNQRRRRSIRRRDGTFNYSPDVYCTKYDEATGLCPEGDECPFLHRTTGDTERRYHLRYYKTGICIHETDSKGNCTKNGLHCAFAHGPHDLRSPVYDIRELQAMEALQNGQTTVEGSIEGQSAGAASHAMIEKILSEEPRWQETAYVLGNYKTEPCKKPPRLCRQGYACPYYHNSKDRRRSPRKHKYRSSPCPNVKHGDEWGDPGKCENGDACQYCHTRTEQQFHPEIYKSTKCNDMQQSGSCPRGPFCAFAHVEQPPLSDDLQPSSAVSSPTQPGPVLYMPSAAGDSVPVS
Strand | bound/input enrichment [ratio]
AGUUUAAUGUAUAAAGAUCCUCUAGAAAAUGAUAAUAUUGUGUAUUAAGACAUUCCUUAAUUAGGACAAAAUGGCUGCUGUAUAUUUACUAUAUGGAGUUCUGAGUUAAAUACCAUCCUU | 2.26
UGAUUUUGUCUAUUUUCAACUAAUGGAGAACUAGCUGUAACUUGAACAAGGAUUACUGUACUGGACAACUUCAGAACAUUGCUCACAAUGUCAUCAAACAGGAGUCAGAAUCCUCAUGGA | 0.0874
UUAAAGAAACAUUCUCGUCUUCCUUUACCUUUAAUCCCCUAAUACCUAGUCUACUUUUUAAAUUUUCAGACUUCACUGCUUUUUGAAUUCAUAAUUCUAAUUUUCACAUUAUUGUUAAUG | 65.5
AAAGUCACCUCUCCUGUGUUGGUCAUUCACGGUACCGAGGAUGAGGUCAUCGAUUUCUCCCAUGGCUUGGCGAUGUAUGAGCGCUGUCCCCGUGCUGUGGAGCCCCUGUGGGUUGAGGGG | 0.282
UUUGAUAUUCCUAGCAUGGAAUCUACCCUCAAUCAGUCGGCAAUGAUGGAGACACUUUAUUCAGAUCCUCACCACCGAGUCCGCUUCCACAACCCAAGAACCAGCACAAGUAAGGAGUUG | 0.171
AACUGGUUUGAGACGUUCAUUGUGUUCAUGAUUCUCCUCAGUAGUGGUGCUUUGGCCUUUGAAGAUAUAUACAUUGAGCAACGGAAGACCAUCAAAACCAUGCUGGAGUAUGCUGACAAA | 0.169
AGCCUCAAGUUCUCCAGUGCUGGGGACUUCUUGGUGGCAGGCGUGGGACAGGAGCACAGGCUUGGCCGGUGGUGGAGGAUCAAAGAGGCCCGGAACUCAGUCUGCAUCAUCCCACUCCGC | 0.103
GGGGAUGUUGCUUACUCUUUUUGCCCACACUGCUUUGGAUACUUAUCUACUGUCCGAAGGCCUUCUUUCCCCACUCAAUUCUUCCUGCCCUGUUAUUAAUUAAGAUAUCUUCAGCUUGUA | 0.613
CUGGACAACAGGGAGAAAGGAGAGAAACUGAAGAAAGAAGACGGUAGACCAGCAUUGCAGCACUUACAGUCACUAAUUCCCUUAAGGUUGAGACUAUAGUGACAGGAAAGGGUCAAUGAC | 0.27
GAUGAAGUGGAGAAAUACAAUCGGAAUGGAGUCAAUGCCCUGCAACUGGACCCAGCACUCAACAGACUCUUCACAGCAGGUCGAGACUCCAUCAUAAGAAUAUGGAGUGUCAAUCAGCAC | 0.117
GCUCACUUUGAUCUUGCCUUGGCACGUUCUGCUAAACUUCGAAACCCUACAAAUGACCUCUUGGUACUUCAUCUCUCUGACCUCAUUCGCAUGGCAUUCAUGGCUGCAACUGAUCAUAGC | 0.156

Sample 5
Target: CCNB2, cyclin fold, Cln2 fusion (human)
Method: yeast growth competition, sequencing
Medium: yeast
Setting: strong parent motif
Relative to: not given
Direction: higher = stronger binding
Starting sequence: PKMYT1 docking peptide (human); SFEPRNLLSLFED
Substitution | normalised enrichment score
SFEPRNLLSLMED [F11M] | -0.233
SFEPRNLLSLFEV [D13V] | 0.463
SFEPRNLLMLFED [S9M] | 0.99
SFHPRNLLSLFED [E3H] | 1.23
SFEPRNPLSLFED [L7P] | -1.01
SFEPRNLLSLQED [F11Q] | -0.399
SFEPRNLLSLFSD [E12S] | -0.351
SFEPRNLLSDFED [L10D] | 2.26
SFEPPNLLSLFED [R5P] | -0.686
SFEPRNLHSLFED [L8H] | 0.0215
SFEPRNLLSLFCD [E12C] | 0.853
MFEPRNLLSLFED [S1M] | 1.81
HFEPRNLLSLFED [S1H] | 1.59
SFEPRNFLSLFED [L7F] | -0.586
SFEPRNLLSKFED [L10K] | -0.312
SFEPRNLLSVFED [L10V] | 0.813
SFEPRFLLSLFED [N6F] | -0.316
SFEPRNLVSLFED [L8V] | 0.15
SFEPRNLWSLFED [L8W] | 0.06
SFEPRNLLSLFEY [D13Y] | 0.89
SFEPRNLLSLGED [F11G] | -0.364
NFEPRNLLSLFED [S1N] | 1.88
SFVPRNLLSLFED [E3V] | 1.87
SFEPRNQLSLFED [L7Q] | -0.629
SFEPRDLLSLFED [N6D] | -0.0982

Mixed results
Substance | target | test | test system | conditions | scale | quantity | result
PhoQ, residues 284 288 289 292 302 303 SSLVEF | PhoP, residues 12 14 15 18 19 SQCLL (Escherichia coli, UniProt P23836) | Sort-seq, refers to: YFP reporter | E. coli | PhoQ-PhoP variant library, together with: 10 µM Mg2+ | relative to: high Mg2+ state, higher = stronger signaling | fold induction | 13.6

Some of these lines once more (sample 2):
Strand | E-score
AGCGAAGA | 0.00492
ACTCGGGA | 0.0654
TCAGCTAA | -0.185
GCCCTAAC | -0.00762
CGCAATCA | 0.221
GAAGTGAC | 0.075
ATTCGTCC | 0.0677
ATTCGAAC | -0.0972
AAGTCAAA | -0.113
CTGGCGCA | 0.0929
ACTCGGTA | 0.00535
